Measured values of several laboratories.
Each line is one published result; not all experiments were run side by side. ± gives the spread as reported.
F2: Prothrombin (F2, Homo sapiens, UniProt P00734)
UniProt Q460N5, sequence (whole entry, looked up): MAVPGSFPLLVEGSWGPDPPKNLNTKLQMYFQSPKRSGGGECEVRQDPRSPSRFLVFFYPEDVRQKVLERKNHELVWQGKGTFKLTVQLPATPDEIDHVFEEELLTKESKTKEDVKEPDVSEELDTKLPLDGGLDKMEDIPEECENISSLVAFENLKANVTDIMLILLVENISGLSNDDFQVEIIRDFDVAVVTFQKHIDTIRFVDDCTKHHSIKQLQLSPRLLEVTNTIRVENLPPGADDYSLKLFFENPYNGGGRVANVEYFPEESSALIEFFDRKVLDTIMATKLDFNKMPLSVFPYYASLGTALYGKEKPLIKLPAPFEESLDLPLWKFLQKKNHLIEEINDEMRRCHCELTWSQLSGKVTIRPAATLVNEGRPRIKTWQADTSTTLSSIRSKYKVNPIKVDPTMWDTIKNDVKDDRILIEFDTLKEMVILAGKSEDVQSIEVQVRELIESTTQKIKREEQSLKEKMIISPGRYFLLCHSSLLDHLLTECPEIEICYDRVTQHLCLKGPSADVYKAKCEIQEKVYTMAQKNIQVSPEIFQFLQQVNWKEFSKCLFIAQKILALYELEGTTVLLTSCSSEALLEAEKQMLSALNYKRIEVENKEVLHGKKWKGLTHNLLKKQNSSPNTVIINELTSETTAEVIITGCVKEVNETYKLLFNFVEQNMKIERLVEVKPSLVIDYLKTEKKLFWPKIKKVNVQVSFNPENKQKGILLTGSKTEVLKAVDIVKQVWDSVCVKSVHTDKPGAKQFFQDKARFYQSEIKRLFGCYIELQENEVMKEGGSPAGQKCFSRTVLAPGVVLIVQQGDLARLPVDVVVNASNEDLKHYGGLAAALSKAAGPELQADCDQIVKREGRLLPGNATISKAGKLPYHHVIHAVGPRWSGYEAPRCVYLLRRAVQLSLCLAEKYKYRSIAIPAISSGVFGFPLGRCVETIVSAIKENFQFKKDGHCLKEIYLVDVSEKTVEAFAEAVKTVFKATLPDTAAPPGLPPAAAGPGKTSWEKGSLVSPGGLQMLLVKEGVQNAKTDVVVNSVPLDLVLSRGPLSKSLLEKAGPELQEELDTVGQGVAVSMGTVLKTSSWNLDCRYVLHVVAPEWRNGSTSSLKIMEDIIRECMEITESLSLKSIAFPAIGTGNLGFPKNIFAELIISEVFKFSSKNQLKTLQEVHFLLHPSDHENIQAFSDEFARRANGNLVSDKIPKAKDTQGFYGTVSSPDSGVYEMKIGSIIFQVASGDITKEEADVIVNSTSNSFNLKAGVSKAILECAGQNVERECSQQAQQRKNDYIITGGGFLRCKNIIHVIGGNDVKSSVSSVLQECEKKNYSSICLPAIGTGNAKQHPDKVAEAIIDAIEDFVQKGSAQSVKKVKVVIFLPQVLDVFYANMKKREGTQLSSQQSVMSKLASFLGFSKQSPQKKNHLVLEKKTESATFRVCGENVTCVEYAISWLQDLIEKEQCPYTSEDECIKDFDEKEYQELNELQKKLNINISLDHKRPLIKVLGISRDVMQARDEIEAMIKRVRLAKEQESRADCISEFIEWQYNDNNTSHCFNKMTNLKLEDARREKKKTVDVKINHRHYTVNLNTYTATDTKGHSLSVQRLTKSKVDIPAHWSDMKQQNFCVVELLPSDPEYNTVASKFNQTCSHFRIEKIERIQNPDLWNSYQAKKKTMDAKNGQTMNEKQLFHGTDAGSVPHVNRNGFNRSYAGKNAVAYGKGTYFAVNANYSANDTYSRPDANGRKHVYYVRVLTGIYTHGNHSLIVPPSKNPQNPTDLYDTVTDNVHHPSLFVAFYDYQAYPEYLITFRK

The Kd of `β-melibiose` is reported as 0.726 µM (Frizzled-8 (Xenopus laevis, UniProt Q91719); biolayer interferometry; 25 °C, immobilised biotinylated carbohydrate).
Under “subjects with related TEAE”, `deucravacitinib` is recorded as 50% (healthy Chinese subjects; dose not given).
`deucravacitinib`: “subjects with infections” 44.4% (multiple ascending dose; healthy human; oral, 4 mg twice daily).
`liquiritin apioside` gave an IC50 of > 100 µM (F2; enzyme activity, inhibitor, fluorogenic; 20 min, 37 °C, with: Z-GGR-AMC 50 µM).
The Cmax of `vorinostat glucuronide` is reported as 1770 nM (patients, plasma; oral, 200 mg vorinostat three times daily, 3 days, with: idarubicin).
For `(+)-catechin gallate`, mass recovered read “not detected” (transwell, HBSS; apical compartment, no cells; 4 h, pH 7.4).
Under liver-to-plasma ratio, `sorafenib glucuronide` is recorded as “increased” (Abcc3(−/−) mouse; oral, 10 mg/kg of sorafenib; baseline: wild type).
For `maraviroc`, the Cmax was 864 ng/mL (human, Black, CYP3A5 poor metabolizers, plasma; 300 mg twice daily).
For `α-poly-L-aspartic acid`, the thermodynamic solubility was > 1000 mg/mL (Tris-Cl buffer; pH 7.5, room temperature).
`semaglutide`: “participants with adverse events” 3.1% (refers to: drug relationship missing; human, safety analysis set; concentration not given, 32 weeks, run-in).
For `isoliquiritin apioside`, the IC50 was 37.9 ± 5.78 µM (F2; enzyme activity, inhibitor, fluorogenic; 20 min, 37 °C, with: Z-GGR-AMC 50 µM).
For `ADP-ribose`, the Kd was 7.8 µM (PARP14 (Homo sapiens, UniProt Q460N5); isothermal titration calorimetry; no inhibitor).
For `chicoric acid`, the Cmax was 73.4 ± 39.3 ng/mL (UPLC; broiler chicken, plasma; oral gavage, 20 mg/kg).
